{"data": "Assay results of several laboratories", "note": "Parts stem from different laboratories: compare values within a part only. “And” joins repeats or separate records; there may be more than shown.", "UniProt Q9Y6M4, sequence (whole entry, looked up)": "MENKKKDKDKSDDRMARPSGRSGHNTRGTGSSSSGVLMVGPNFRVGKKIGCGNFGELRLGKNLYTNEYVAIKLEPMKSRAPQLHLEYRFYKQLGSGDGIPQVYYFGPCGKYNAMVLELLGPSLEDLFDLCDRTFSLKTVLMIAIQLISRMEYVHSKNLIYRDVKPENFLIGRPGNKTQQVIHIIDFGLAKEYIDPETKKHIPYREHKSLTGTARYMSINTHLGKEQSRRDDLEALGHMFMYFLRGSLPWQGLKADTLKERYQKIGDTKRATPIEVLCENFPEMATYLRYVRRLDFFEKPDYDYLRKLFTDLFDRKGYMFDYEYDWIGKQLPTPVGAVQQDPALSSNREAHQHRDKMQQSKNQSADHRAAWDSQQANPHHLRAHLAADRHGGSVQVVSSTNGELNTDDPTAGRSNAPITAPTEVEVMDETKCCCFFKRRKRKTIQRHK", "UniProt O60674, sequence (whole entry, looked up)": "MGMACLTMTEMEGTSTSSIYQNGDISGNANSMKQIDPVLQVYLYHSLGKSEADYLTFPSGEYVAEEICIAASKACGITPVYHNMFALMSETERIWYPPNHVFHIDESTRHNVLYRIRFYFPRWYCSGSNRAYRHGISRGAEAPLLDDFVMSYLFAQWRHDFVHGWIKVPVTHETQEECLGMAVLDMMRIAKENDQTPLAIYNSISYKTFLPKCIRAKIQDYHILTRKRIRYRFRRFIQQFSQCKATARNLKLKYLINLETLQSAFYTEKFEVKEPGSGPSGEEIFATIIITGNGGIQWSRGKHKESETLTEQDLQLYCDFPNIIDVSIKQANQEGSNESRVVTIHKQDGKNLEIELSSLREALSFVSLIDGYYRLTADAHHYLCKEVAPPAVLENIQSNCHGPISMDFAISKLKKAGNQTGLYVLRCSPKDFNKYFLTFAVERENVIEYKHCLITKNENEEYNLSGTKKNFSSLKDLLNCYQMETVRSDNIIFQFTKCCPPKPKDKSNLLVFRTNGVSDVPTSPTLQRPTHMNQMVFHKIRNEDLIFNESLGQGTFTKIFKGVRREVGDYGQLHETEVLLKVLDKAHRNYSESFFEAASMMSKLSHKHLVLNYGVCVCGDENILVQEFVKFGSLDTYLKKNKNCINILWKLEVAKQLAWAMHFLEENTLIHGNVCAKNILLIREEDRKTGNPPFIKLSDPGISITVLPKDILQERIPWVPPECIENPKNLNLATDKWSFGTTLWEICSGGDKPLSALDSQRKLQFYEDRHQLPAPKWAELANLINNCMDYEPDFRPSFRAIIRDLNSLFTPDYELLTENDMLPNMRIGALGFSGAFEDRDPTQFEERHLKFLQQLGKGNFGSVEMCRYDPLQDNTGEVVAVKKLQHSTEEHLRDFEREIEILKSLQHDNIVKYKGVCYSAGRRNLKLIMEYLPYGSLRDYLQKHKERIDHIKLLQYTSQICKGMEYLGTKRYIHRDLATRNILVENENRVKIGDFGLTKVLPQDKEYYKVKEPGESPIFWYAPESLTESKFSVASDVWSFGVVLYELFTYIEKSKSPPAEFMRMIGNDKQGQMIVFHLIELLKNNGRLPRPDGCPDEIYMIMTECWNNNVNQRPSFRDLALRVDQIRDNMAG", "UniProt P49841, sequence (whole entry, looked up)": "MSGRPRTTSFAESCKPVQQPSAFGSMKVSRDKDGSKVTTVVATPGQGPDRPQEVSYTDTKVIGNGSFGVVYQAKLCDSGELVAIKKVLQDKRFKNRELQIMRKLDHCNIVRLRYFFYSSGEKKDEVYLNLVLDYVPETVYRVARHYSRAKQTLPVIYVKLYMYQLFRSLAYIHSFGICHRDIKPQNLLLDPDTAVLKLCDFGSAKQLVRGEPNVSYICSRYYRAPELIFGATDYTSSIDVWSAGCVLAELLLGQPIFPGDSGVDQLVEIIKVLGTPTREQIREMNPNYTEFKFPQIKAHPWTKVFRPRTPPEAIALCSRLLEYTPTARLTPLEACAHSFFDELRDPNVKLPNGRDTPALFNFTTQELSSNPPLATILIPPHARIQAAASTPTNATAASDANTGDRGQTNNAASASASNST", "UniProt P29320, sequence (whole entry, looked up)": "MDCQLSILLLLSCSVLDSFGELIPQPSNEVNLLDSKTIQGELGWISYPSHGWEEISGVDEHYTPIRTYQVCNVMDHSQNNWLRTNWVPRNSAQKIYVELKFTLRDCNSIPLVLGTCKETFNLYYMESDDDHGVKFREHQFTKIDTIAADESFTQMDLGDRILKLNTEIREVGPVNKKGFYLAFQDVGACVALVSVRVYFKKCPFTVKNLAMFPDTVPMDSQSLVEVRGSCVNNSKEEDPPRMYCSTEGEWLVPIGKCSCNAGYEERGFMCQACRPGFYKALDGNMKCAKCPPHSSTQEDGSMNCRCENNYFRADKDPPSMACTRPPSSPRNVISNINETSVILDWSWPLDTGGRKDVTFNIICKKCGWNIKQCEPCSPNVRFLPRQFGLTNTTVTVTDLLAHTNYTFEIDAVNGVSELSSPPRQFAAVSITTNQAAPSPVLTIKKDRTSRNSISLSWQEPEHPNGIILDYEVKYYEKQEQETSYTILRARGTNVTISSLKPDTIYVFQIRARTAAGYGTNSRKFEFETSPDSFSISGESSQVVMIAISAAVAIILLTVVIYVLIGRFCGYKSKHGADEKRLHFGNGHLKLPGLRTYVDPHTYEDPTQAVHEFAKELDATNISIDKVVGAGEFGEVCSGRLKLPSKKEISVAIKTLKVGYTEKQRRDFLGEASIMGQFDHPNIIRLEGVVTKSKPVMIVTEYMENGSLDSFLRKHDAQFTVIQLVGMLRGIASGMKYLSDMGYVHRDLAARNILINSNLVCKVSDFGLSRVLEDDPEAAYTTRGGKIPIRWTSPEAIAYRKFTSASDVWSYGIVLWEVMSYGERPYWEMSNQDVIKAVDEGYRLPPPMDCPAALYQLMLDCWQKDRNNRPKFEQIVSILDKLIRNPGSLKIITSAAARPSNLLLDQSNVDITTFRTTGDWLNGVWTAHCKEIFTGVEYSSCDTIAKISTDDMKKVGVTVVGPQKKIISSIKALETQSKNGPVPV", "UniProt Q96SB4, sequence (whole entry, looked up)": "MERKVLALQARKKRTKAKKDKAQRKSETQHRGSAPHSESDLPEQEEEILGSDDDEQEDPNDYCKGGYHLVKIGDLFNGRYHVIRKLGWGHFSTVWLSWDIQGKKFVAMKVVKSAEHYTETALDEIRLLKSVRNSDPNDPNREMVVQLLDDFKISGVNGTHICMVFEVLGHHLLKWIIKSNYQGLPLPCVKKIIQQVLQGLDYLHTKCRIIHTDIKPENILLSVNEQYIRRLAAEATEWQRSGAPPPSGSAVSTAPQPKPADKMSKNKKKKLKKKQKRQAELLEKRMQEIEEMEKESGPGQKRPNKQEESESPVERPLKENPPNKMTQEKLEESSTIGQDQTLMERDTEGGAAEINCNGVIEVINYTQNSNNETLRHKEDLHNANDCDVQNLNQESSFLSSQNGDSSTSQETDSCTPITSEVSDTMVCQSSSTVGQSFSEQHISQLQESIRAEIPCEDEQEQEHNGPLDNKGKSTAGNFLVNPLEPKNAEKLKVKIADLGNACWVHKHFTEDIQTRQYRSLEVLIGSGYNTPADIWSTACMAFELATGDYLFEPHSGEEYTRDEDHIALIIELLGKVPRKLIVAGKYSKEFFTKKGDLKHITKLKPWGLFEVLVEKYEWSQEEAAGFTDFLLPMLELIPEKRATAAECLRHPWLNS", "UniProt Q8WTQ7, sequence (whole entry, looked up)": "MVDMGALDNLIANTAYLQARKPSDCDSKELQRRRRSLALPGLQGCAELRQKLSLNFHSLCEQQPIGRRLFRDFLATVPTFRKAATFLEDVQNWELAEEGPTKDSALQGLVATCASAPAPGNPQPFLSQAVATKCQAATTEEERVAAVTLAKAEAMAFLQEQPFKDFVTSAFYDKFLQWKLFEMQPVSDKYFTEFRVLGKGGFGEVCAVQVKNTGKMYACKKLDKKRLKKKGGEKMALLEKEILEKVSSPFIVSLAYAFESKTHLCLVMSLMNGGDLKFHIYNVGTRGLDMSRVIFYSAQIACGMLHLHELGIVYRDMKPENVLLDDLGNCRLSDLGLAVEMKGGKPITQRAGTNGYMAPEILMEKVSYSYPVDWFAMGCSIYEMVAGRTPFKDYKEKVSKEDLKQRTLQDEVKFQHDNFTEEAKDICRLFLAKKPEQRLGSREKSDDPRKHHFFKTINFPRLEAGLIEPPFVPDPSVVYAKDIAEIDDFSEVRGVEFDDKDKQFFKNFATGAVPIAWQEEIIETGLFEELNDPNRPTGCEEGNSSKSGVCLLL", "UniProt O75716, sequence (whole entry, looked up)": "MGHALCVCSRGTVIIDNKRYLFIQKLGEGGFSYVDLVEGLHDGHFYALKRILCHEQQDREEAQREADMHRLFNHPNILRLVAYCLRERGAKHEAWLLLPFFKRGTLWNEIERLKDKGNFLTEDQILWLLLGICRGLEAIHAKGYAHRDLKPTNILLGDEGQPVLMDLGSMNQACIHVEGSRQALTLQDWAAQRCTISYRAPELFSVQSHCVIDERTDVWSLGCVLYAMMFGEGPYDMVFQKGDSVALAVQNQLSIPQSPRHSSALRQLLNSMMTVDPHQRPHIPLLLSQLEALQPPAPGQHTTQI"}
{"data": "Study 1", "Structure (SMILES)": "C[C@H]1CC[C@H](n2c3cnccc3c3cnc(Nc4ccc5c(n4)CCN(C(=O)CO)C5)nc32)CC1", "read-out": "cell-free assay", "concentration": "1 µM"}
{"target": "Serine/threonine-protein kinase PAK 6 (PAK6, Homo sapiens, UniProt Q9NQU5)", "remaining signal [%]": 70}
{"target": "Serine/threonine-protein kinase N1 (PKN1, Homo sapiens, UniProt Q16512)", "remaining signal [%]": 91}
{"target": "Serine/threonine-protein kinase 16 (STK16, Homo sapiens, UniProt O75716)", "remaining signal [%]": 2.5}
{"target": "Dual specificity tyrosine-phosphorylation-regulated kinase 1B (DYRK1B, Homo sapiens, UniProt Q9Y463)", "remaining signal [%]": 0.6}
{"target": "Mast/stem cell growth factor receptor Kit (KIT, Homo sapiens, UniProt P10721, D816H)", "remaining signal [%]": 25}
{"data": "Study 2", "Compound": "C[C@@H](N)[C@H]1CC[C@H](C(=O)Nc2ccncc2)CC1", "read-out": "enzyme activity", "mode": "inhibitor", "concentration": "0.5 µM", "baseline": "control"}
{"target": "Tyrosine-protein kinase FRK (FRK, Homo sapiens, UniProt P42685)", "remaining activity [%]": 95.9}
{"target": "Fibroblast growth factor receptor 1 (FGFR1, Homo sapiens, UniProt P11362)", "remaining activity [%]": 92.1}
{"target": "Ephrin type-A receptor 3 (EPHA3, Homo sapiens, UniProt P29320)", "remaining activity [%]": 95.5}
{"target": "Ribosomal protein S6 kinase alpha-2 (RPS6KA2, Homo sapiens, UniProt Q15349)", "remaining activity [%]": 71.5}
{"target": "Serine/threonine-protein kinase Nek6 (NEK6, Homo sapiens, UniProt Q9HC98)", "remaining activity [%]": 94.7}
{"target": "Fibroblast growth factor receptor 3 (FGFR3, Homo sapiens, UniProt P22607)", "remaining activity [%]": 101}
{"target": "Serine/threonine-protein kinase ULK3 (ULK3, Homo sapiens, UniProt Q6PHR2)", "remaining activity [%]": 101}
{"target": "Casein kinase I isoform gamma-2 (CSNK1G2, Homo sapiens, UniProt P78368)", "remaining activity [%]": 99.5}
{"target": "Glycogen synthase kinase-3 beta (GSK3B, Homo sapiens, UniProt P49841)", "remaining activity [%]": 102}
{"target": "Activin receptor type-1B (ACVR1B, Homo sapiens, UniProt P36896)", "remaining activity [%]": 99.6}
{"target": "Serine/threonine-protein kinase Nek1 (NEK1, Homo sapiens, UniProt Q96PY6)", "remaining activity [%]": 109}
{"target": "Tyrosine-protein kinase ABL2 (ABL2, Homo sapiens, UniProt P42684)", "remaining activity [%]": 94.6}
{"target": "Wee1-like protein kinase (WEE1, Homo sapiens, UniProt P30291)", "remaining activity [%]": 111}
{"target": "Angiopoietin-1 receptor (TEK, Homo sapiens, UniProt Q02763)", "remaining activity [%]": 99.6}
{"target": "Mitogen-activated protein kinase kinase kinase 14 (MAP3K14, Homo sapiens, UniProt Q99558)", "remaining activity [%]": 109}
{"target": "Serine/threonine-protein kinase ULK2 (ULK2, Homo sapiens, UniProt Q8IYT8)", "remaining activity [%]": 102}
{"target": "Macrophage-stimulating protein receptor (MST1R, Homo sapiens, UniProt Q04912)", "remaining activity [%]": 94.6}
{"target": "Rhodopsin kinase GRK7 (GRK7, Homo sapiens, UniProt Q8WTQ7)", "remaining activity [%]": 88.1}
{"target": "Casein kinase I isoform gamma-3 (CSNK1G3, Homo sapiens, UniProt Q9Y6M4)", "remaining activity [%]": 98.5}
{"target": "Mitogen-activated protein kinase kinase kinase 5 (MAP3K5, Homo sapiens, UniProt Q99683)", "remaining activity [%]": 105}
{"target": "Mitogen-activated protein kinase 3 (MAPK3, Homo sapiens, UniProt P27361)", "remaining activity [%]": 98}
{"data": "Study 3", "SMILES": "CS(=O)(=O)NCC[C@H](NC(=O)c1cncc2c1cnn2-c1ccc(F)cc1)c1ccnc(S(C)(=O)=O)c1", "read-out": "cell-free assay", "method": "competition with immobilised ligand", "concentration": "1 µM"}
{"target": "Epidermal growth factor receptor (EGFR, Homo sapiens, UniProt P00533, del746-750)", "remaining binding [%]": 92}
{"target": "SRSF protein kinase 1 (SRPK1, Homo sapiens, UniProt Q96SB4)", "remaining binding [%]": 83}
{"target": "MAP kinase-interacting serine/threonine-protein kinase 2 (MKNK2, Homo sapiens, UniProt Q9HBH9)", "remaining binding [%]": 100}
{"target": "Epidermal growth factor receptor (EGFR, Homo sapiens, UniProt P00533, T790M)", "remaining binding [%]": 90}
{"target": "Receptor-type tyrosine-protein kinase FLT3 (FLT3, Homo sapiens, UniProt P36888, D835H)", "remaining binding [%]": 100}
{"data": "Study 4", "species": "human", "sample": "microsomes or S9", "concentration": "2 µM", "time": "0.5 h"}
{"SMILES": "O=S(=O)(Nc1ccc2[nH]ncc2c1)c1cc(Cl)c(Cl)cc1Cl", "remaining compound [%]": "> 99"}
{"SMILES": "O=c1ccn(-c2ccc(Cl)c(-c3ccc(Cl)cc3)c2)[nH]1", "remaining compound [%]": 32.1}
{"SMILES": "Cc1ccn(CCC(=O)N(Cc2ccncc2)Cc2cccc(OCCc3ccc(F)cc3)c2)n1", "remaining compound [%]": 2.42}
{"SMILES": "Cc1cnc(C)n1CCNS(=O)(=O)c1cccs1", "remaining compound [%]": 71.1}
{"data": "Study 5", "target": "Calcium/calmodulin-dependent protein kinase type II subunit alpha (CAMK2A, Homo sapiens, UniProt Q9UQM7)", "read-out": "enzyme activity", "mode": "inhibitor", "concentration": "10 µM", "UniProt Q9UQM7, sequence (whole entry, looked up)": "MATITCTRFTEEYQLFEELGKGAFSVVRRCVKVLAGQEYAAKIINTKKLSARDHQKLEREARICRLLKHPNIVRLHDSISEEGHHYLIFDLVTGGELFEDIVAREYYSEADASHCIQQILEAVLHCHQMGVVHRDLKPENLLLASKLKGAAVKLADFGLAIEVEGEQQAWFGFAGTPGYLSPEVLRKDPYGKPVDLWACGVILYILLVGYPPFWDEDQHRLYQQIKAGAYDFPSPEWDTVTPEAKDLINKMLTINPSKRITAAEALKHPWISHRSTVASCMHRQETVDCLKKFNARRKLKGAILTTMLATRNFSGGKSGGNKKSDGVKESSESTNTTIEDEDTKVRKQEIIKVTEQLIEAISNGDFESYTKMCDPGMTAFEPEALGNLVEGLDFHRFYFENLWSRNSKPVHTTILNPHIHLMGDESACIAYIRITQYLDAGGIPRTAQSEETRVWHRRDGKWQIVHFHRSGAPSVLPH"}
{"SMILES": "O=c1cc(-c2ccccc2)oc2cccc(O)c12", "inhibition [%]": 2}
{"SMILES": "O=C(CO)[C@@H](O)[C@@H](O)[C@H](O)[C@H](O)CO", "inhibition [%]": -7}
{"SMILES": "COC(=O)c1cc(O)c(O)c(OC)c1", "inhibition [%]": 0}
{"SMILES": "COc1ccc(CCO[C@@H]2CCCC[C@H]2N2CC[C@@H](O)C2)cc1OC", "inhibition [%]": -10}
{"SMILES": "CCCCCC/C(C=O)=C\\c1ccccc1", "inhibition [%]": -20}
{"data": "Study 6", "SMILES": "CC(C)S(=O)(=O)c1ccc2nccc(Nc3ccc4sc(C5CCCC5)nc4c3)c2c1.Cl", "read-out": "kinase activity", "mode": "inhibitor", "concentration": "1 µM"}
{"target": "Mitogen-activated protein kinase kinase kinase 8 (MAP3K8, Homo sapiens, UniProt P41279)", "remaining activity [%]": 103}
{"target": "Macrophage colony-stimulating factor 1 receptor (CSF1R, Homo sapiens, UniProt P07333)", "remaining activity [%]": 64}
{"target": "Tyrosine-protein kinase JAK2 (JAK2, Homo sapiens, UniProt O60674)", "remaining activity [%]": 97}
{"target": "Casein kinase I isoform gamma-3 (CSNK1G3, Homo sapiens, UniProt Q9Y6M4)", "remaining activity [%]": 109}
{"target": "Casein kinase II subunit alpha' (CSNK2A2, Homo sapiens, UniProt P19784)", "remaining activity [%]": 95}
{"data": "Other studies, line by line"}
{"SMILES": "CC(=O)N[C@@H](Cc1c[nH]c2ccccc12)C(=O)N[C@@H](CCC(=O)C=[N+]=[N-])C(=O)OC(C)C", "assay": "UPLC-MS/MS", "system": "EL4 tumor, C57BL/6 CES1-/- mice, tumor", "setting": "subcutaneous, 0.3 mg/kg DON equivalent daily, 5 days", "scale": "higher = more metabolite", "quantity": "salicylate level", "value": "403000 a.u. and 535000 a.u. and 596000 a.u. and 711000 a.u. and 576000 a.u. and 545000 a.u."}
